Measurements of several laboratories.
A part holds a random share of what one study measured.
UniProt P10721, sequence (whole entry, unmodified, looked up): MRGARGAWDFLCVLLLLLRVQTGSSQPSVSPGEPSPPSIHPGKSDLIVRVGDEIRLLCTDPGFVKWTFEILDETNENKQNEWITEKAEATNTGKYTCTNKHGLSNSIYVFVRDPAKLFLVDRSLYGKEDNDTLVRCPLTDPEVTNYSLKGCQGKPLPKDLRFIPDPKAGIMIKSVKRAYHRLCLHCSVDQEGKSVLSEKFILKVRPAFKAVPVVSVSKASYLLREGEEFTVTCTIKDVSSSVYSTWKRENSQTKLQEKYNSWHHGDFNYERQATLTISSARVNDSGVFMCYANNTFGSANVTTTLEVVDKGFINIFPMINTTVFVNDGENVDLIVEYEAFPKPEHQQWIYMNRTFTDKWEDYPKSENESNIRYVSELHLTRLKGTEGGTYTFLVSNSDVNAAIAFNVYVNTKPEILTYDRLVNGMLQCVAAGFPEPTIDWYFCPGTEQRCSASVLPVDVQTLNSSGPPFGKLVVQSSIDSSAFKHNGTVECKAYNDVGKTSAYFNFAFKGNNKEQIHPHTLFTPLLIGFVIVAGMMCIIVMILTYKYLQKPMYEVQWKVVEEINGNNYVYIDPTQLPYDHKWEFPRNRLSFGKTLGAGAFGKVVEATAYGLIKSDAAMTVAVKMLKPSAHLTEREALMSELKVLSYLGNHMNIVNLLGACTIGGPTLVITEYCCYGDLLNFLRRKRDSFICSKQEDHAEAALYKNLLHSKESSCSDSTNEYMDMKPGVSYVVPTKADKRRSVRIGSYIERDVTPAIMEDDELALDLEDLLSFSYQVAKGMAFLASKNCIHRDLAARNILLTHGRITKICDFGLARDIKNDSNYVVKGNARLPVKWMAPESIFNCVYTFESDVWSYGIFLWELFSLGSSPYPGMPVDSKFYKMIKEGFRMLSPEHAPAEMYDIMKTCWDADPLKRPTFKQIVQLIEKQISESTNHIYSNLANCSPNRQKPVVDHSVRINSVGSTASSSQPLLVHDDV
UniProt O75676, sequence (whole entry, looked up): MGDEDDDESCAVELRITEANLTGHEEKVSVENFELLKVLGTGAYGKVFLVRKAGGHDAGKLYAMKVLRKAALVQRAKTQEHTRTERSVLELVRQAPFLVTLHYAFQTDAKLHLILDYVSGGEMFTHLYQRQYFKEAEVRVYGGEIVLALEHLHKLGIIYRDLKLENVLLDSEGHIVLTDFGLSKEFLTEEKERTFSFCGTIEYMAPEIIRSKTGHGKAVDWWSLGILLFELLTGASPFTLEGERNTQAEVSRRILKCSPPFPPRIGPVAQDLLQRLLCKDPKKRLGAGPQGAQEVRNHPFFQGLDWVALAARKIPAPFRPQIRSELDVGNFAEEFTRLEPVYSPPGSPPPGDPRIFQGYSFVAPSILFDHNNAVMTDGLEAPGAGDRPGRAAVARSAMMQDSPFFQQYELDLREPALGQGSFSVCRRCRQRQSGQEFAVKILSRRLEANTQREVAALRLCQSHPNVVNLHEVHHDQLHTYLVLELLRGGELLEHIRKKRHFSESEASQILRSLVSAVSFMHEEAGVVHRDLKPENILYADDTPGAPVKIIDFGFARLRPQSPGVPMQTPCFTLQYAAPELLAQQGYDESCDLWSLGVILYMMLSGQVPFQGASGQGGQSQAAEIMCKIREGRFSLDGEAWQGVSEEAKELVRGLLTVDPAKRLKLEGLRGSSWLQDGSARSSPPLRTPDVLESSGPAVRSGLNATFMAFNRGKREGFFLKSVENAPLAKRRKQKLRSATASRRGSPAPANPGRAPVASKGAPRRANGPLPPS
UniProt Q9NRH2, sequence (whole entry, looked up): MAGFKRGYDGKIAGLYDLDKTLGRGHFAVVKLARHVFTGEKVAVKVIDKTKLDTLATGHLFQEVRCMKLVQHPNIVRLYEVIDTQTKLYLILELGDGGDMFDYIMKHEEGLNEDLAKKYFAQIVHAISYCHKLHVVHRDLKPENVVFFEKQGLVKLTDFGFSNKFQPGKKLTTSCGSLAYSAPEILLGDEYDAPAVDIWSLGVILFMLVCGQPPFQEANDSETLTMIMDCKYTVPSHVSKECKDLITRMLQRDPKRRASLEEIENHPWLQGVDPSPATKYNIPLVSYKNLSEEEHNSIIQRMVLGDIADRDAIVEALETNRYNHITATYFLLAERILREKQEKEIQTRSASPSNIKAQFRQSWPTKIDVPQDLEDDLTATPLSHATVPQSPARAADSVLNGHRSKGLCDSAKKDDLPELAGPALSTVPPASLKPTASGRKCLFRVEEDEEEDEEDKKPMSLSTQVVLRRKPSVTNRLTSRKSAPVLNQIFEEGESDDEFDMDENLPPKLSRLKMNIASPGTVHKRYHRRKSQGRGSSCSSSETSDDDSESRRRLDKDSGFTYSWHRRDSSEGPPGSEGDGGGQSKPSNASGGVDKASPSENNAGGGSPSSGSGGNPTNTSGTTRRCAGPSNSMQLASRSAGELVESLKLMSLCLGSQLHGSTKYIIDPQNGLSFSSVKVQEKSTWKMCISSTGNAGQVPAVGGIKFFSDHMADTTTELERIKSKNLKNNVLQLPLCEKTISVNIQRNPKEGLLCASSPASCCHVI
UniProt Q15349, sequence (whole entry, looked up): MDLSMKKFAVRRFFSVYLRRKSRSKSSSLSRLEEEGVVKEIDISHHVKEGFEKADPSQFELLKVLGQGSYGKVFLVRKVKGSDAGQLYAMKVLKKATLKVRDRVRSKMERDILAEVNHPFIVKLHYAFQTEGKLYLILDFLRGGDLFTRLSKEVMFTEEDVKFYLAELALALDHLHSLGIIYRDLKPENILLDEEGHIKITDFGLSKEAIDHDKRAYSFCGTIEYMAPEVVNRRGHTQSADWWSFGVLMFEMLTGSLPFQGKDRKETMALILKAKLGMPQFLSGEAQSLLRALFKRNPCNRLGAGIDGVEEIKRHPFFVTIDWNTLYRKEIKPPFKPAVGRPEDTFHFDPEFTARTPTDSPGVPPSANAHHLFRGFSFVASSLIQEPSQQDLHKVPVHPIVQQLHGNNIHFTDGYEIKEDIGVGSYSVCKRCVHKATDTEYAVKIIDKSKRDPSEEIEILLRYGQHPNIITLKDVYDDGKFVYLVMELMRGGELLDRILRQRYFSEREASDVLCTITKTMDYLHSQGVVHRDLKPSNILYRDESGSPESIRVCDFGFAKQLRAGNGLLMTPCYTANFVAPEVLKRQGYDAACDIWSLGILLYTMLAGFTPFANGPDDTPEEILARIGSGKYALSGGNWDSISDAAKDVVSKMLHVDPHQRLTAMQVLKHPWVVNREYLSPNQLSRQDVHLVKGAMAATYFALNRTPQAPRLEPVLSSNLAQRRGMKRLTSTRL
UniProt Q15208, sequence (whole entry, looked up): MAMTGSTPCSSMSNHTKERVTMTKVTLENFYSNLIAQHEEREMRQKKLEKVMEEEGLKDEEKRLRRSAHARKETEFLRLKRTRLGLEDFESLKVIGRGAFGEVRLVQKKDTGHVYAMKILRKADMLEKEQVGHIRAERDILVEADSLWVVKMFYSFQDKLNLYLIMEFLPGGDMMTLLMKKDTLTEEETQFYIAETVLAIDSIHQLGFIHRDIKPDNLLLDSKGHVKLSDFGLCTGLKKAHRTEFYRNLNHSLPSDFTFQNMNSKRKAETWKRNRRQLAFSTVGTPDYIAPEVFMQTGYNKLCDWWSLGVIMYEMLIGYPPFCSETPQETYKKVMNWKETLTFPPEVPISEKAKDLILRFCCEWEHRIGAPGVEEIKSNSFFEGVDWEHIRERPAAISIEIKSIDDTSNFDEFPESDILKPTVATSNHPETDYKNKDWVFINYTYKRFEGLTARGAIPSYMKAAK

Set 1
Compound: CC1=C(C#N)C(c2ccc3c(c2)c(NC(=O)c2ccccc2C)nn3C)C(C#N)=C(C)N1
Technique: competition with immobilised ligand
Concentration: 1 µM
| target | read-out | remaining binding |
| --- | --- | --- |
| Serine/threonine-protein kinase PAK 2 (PAK2, Homo sapiens, UniProt Q13177) | cell-free assay | 100% |
| RAF proto-oncogene serine/threonine-protein kinase (RAF1, Homo sapiens, UniProt P04049) | cell-free assay | 100% |
| Mitogen-activated protein kinase kinase kinase 14 (MAP3K14, Homo sapiens, UniProt Q99558) | cell-free assay | 69% |
| SNF-related serine/threonine-protein kinase (SNRK, Homo sapiens, UniProt Q9NRH2) | cell-free assay | 100% |
| Mast/stem cell growth factor receptor Kit (KIT, Homo sapiens, UniProt P10721, V559D/V654A) | cell-free assay | 99% |
| Dual specificity protein kinase CLK1 (CLK1, Homo sapiens, UniProt P49759) | cell-free assay | 87% |
| Phosphatidylinositol 4,5-bisphosphate 3-kinase catalytic subunit delta isoform (PIK3CD, Homo sapiens, UniProt O00329) | cell-free assay | 71% |
| Epidermal growth factor receptor (EGFR, Homo sapiens, UniProt P00533, L861Q) | cell-free assay | 69% |
| Serine/threonine-protein kinase ICK (CILK1, Homo sapiens, UniProt Q9UPZ9) | binding | 97% |
| Serine/threonine-protein kinase 38 (STK38, Homo sapiens, UniProt Q15208) | cell-free assay | 96% |
| Mast/stem cell growth factor receptor Kit (KIT, Homo sapiens, UniProt P10721, D816V) | cell-free assay | 85% |
| Serine/threonine-protein kinase Sgk3 (SGK3, Homo sapiens, UniProt Q96BR1) | cell-free assay | 95% |
| Ribosomal protein S6 kinase alpha-4, C-terminal kinase domain (RPS6KA4, Homo sapiens, UniProt O75676) | cell-free assay | 89% |
| 1-phosphatidylinositol 3-phosphate 5-kinase (PIKFYVE, Homo sapiens, UniProt Q9Y2I7) | cell-free assay | 87% |
| Ribosomal protein S6 kinase alpha-2, C-terminal kinase domain (RPS6KA2, Homo sapiens, UniProt Q15349) | cell-free assay | 94% |
| Serine/threonine-protein kinase Nek10 (NEK10, Homo sapiens, UniProt Q6ZWH5) | cell-free assay | 90% |
| Calcium/calmodulin-dependent protein kinase type II subunit alpha (CAMK2A, Homo sapiens, UniProt Q9UQM7) | cell-free assay | 90% |

Set 2
Target: Probable WRKY transcription factor 33, N-terminal DNA-binding domain (WRKY33, Arabidopsis thaliana, UniProt Q8S8P5, residues 169-264)
Technique: DNA-protein interaction ELISA
Molecule type: double-stranded DNA, one strand shown
Medium: in vitro, bacterial lysate
Concentration: not given
Setting: whole dsDNA probe, crude lysate protein
Baseline: highest signal in screen
Reading: higher = stronger binding
Target sequence (chain): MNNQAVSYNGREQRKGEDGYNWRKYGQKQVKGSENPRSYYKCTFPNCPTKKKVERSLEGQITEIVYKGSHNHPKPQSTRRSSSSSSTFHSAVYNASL
| Sequence | relative absorbance |
| --- | --- |
| AAAAAAGGTTTAGCCCATGCCTGTGCAAAA | 21 % of maximum |
| AAAAAATCTTACCCCTCCGCTTCTATAAAA | 17.8 % of maximum |
| AAAAAACCTACGATGGTTCTGATCTTAAAA | 18.8 % of maximum |
| AAAAAACGCCGGACAATCAGGCGCTCAAAA | 19.6 % of maximum |
| AAAAAATATCATTGTTACCGTTGCTAAAAA | 25.6 % of maximum |
| AAAAAACTGTCTGTCCTATATCACTTAAAA | 24.9 % of maximum |
| AAAAAACCAGTCTACACCGCTGTAGGAAAA | 29.6 % of maximum |
| AAAAAAGTTTCCTACTTGTGTCTGTGAAAA | 21.8 % of maximum |

Set 3
Target: Ribosomal protein S6 kinase alpha-6 (RPS6KA6, Homo sapiens, UniProt Q9UK32)
UniProt Q9UK32, sequence (whole entry, looked up): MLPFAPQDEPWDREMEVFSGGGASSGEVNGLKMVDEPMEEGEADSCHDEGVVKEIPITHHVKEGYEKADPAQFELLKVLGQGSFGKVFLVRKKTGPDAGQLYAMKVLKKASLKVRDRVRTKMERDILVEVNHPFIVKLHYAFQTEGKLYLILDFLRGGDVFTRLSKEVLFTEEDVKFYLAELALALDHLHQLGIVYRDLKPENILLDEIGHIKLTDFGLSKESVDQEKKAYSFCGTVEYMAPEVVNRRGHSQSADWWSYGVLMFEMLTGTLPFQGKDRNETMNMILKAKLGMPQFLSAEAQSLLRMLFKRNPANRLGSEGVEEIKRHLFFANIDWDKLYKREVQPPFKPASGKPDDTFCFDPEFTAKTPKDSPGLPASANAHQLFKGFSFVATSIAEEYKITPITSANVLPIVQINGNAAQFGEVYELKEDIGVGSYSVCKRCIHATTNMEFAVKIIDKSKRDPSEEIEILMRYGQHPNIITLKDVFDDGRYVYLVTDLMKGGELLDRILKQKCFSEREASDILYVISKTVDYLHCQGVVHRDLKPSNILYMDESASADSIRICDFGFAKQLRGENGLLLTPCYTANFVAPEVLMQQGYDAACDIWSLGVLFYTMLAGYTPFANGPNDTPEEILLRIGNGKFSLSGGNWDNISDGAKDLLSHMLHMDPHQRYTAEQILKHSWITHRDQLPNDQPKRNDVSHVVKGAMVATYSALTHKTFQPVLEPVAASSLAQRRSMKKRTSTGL
Read-out: enzyme activity
Action: inhibitor
Concentration: 0.5 µM
Baseline: control
| Compound | remaining activity [%] |
| --- | --- |
| Cn1c2ccccc2c2c3c(c4c5ccccc5n(CCC#N)c4c21)CNC3=O | 4.2 |
| Nc1[nH]nc2nc3ccccc3nc12 | 94.2 |
| Cc1cccc(-c2[nH]c(C(C)(C)C)nc2-c2ccc3c(c2)OCO3)n1 | 107 |
| COc1cc2ncnc(Nc3ccc(F)c(Cl)c3)c2cc1OCCCN1CCOCC1 | 95.2 |
| Nc1ncnc2n[nH]c(Nc3ccc(F)cc3)c12 | 71.7 |
| CN(C)c1ccc(C=C2C(=O)Nc3ccccc32)cc1 | 93.9 |
| O=S(=O)(c1cccc2cnccc12)N1CCCNCC1 | 94 |
| NCCNc1ncc(C(N)=O)c(Nc2cccc(C(F)(F)F)c2)n1 | 86.7 |
| CO[C@H]1C[C@@H]2CC[C@@H](C)[C@@](O)(O2)C(=O)C(=O)N2CCCC[C@H]2C(=O)O[C@H]([C@H](C)C[C@@H]2CC[C@@H](O)[C@H](OC)C2)CC(=O)[C@H](C)/C=C(\C)[C@@H](O)[C@@H](OC)C(=O)[C@H](C)C[C@H](C)/C=C/C=C/C=C/1C | 118 |
| O=C(Nc1cccc(Nc2cc(Nc3cccc(C(F)(F)F)c3)ncn2)c1)C1CC1 | 96.6 |
| CCOC(=O)c1c(C)[nH]c(/C=C2\C(=O)Nc3ccccc32)c1C | 87.6 |
| N#CC(C#N)=C(N)/C(C#N)=C/c1ccc(O)cc1 | 104 |

Set 4
Target: RING finger protein unkempt homolog, zinc fingers 1-6, SBP tag (UNK, Homo sapiens, UniProt Q9C0B0, residues 30-357)
UniProt Q9C0B0, sequence (30-357, looked up): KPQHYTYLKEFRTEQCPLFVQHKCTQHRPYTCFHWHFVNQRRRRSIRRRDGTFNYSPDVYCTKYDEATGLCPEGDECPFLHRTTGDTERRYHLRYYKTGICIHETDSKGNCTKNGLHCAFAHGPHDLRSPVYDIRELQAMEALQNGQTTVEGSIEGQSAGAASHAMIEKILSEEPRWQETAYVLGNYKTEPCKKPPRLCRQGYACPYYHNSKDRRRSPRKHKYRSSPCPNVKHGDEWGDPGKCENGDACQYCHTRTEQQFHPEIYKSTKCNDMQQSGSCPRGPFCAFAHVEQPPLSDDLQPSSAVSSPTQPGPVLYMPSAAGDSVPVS
Technique: RNA Bind-n-Seq
Molecule type: RNA
Medium: in vitro
Concentration: 100 nM
Setting: RNA with constant flanks, vertebrate orthologous sites, ends assumed
Baseline: input RNA pool
Reading: higher = stronger binding
All sequences stand within: GGGAGUUCUACAGUCCGACGAUC … CAACAGAGGAUUGAGCAUCA
| Sequence | bound/input enrichment [ratio] |
| --- | --- |
| UUCUCAACUUGUUCUAGCUGGUGAUCGUUCAAAGUUGGGUCAGGCAGUAGUGCUAGGUACUAGAAAUUUUCAUUUCCCUAUUGCCAUUGAUCAGAGAAGACAGACAUUAAAAAUAGAAAU | 0.927 |
| GUGACUUUGGACGCCCGCAAGUGUUGAGUGUAGCGAGUCCUCGAUAUUGGGCCUGCCGAGUUAGUUCUCUUCUUCUGGACCCGAAGACCUCUGCCGCAAACAUGCUCCGCCAGAUCAUCG | 0.352 |
| UAUAUUGUUCAUUUGAUUAAAAUUAUUUAGAUAAGAAAUAUUGCUACGUUCACUUUUAAAUAGCUUUAUCCUGUUUUCCGUUCAUUUUGUAUUUGUUGUGUGUAGUCUCUUAACAUGUCA | 0.516 |
| UCCUAGCGUCAUACCAGCAUACUAUCUAGUCAUACGUGCACAGCUUACCAAGUAACAGUCUCGUUGUAUUUUUAAUUUAAAAACUGCUUUUCCCAAGACUGAAAAAGAAGCUACGGUUUU | 1.03 |
| UUACAGUCAUUGAUGGACUCUAUUUUUUUAUUAUUACUUGGACCUUGGUCGUUUUUAUACUAGCAAAAUGUCUUGUUUUAAUUUGUGUUUUUUGGGGGGAGGGAGGGAGUGAACUUGCUG | 2.03 |
| UCCUCAACUUGUUCUAGCUUGUGAUCCUUCAAAAUUGGAUCAUGCAUUAGUGCUAGAUUCUAGAAAUUUUCGCUUCUCUCCACUGAUCAGAGAAACAGACAAUAAAAACAGAAAUACAAG | 1.03 |
| CUGAAGCUUUGUGUUUGGCUGCACCUACAUAAGCUGCUACAAAUAGAAUAAAGAAUUUCAUAGCCUGUAUCUAUCAUUUAGAUGCAUGGAAAAUGGGCUUUGCACACAGUGGGUUUGGAG | 1.87 |
| AUUAAAUAUGUAUCAGAUGCUGGAUGUAACAUUGAACCAUCAUUUGUAAUAGAUGUUAAUUUGUUAUAAUUAAGCUACAAAUAGGUUUCCUUAAACCAGAGAUACACUGCCCUUGUCUGA | 0.245 |

Repeated from above (set 3):
| Compound | remaining activity [%] |
| --- | --- |
| O=C(Nc1cccc(Nc2cc(Nc3cccc(C(F)(F)F)c3)ncn2)c1)C1CC1 | 96.6 |
| N#CC(C#N)=C(N)/C(C#N)=C/c1ccc(O)cc1 | 104 |
| O=S(=O)(c1cccc2cnccc12)N1CCCNCC1 | 94 |
| NCCNc1ncc(C(N)=O)c(Nc2cccc(C(F)(F)F)c2)n1 | 86.7 |
| CO[C@H]1C[C@@H]2CC[C@@H](C)[C@@](O)(O2)C(=O)C(=O)N2CCCC[C@H]2C(=O)O[C@H]([C@H](C)C[C@@H]2CC[C@@H](O)[C@H](OC)C2)CC(=O)[C@H](C)/C=C(\C)[C@@H](O)[C@@H](OC)C(=O)[C@H](C)C[C@H](C)/C=C/C=C/C=C/1C | 118 |
